Results of several laboratories.

| Structure (SMILES) | host | medium | route | dose | setting | half-life [h] |
| --- | --- | --- | --- | --- | --- | --- |
| CCn1cc(-c2cc(Cn3ccnc3)cc3c2CCN([C@H](c2cc(OC)ccn2)C2CC2)C3=O)c(C(F)(F)F)n1 | male CD-1 mouse | plasma | intravenous | 3 mg/kg |  | 0.9 |
| Oc1ccc([C@@H]2Oc3ccc(O)cc3[C@@H]3CCC[C@@H]32)cc1 | male C57BL/6 mouse | plasma | intravenous | 1 mg/kg |  | 1.8 |
| Nc1ccc(-c2cc(Cl)c(Cl)c3[nH]c4c(c23)CN(C(=O)CO)CC4)cn1 | C57BL/6 mouse | blood | oral | 20 mg/kg |  | 2.12 |
| Nc1ccc(-c2ccc(F)cc2)cc1NC(=O)C1CCOCC1 | male C57BL/6 mouse | brain | intraperitoneal | 10 mg/kg |  | 0.213 |
| CC[C@H](C)/C=C/C=C/C=C/C(O)=C/C(=O)C(Cl)(Cl)Cl | female C57BL/6 mouse | plasma | oral | 25 mg/kg |  | 1.4 |
| CC(C)NC(=O)NC1CC=C(c2cc3c(Nc4cc5ncsc5cc4F)ncnc3s2)CC1 (racemic) | mouse | plasma | oral | 10 mg/kg |  | 4.35 |
| N#CCCC1CCN(C(=S)c2ccc(-c3cc(Cl)ccc3Cl)o2)CC1 | male BALB/c mouse | plasma | oral | 10 mg/kg |  | 2.11 |
| CC[C@H](C)/C=C/C=C/C=C/C(O)=C/C(=O)C(F)(F)F | female C57BL/6 mouse | plasma | oral | 25 mg/kg |  | 1 |
| O=C(C1CC1)N1CCC=C(c2cc3c(Nc4cc5ncsc5cc4F)ncnc3s2)C1 | mouse | plasma | intravenous | 10 mg/kg |  | 9.1 |
| COC1C(c2ccc(Cl)c(Cc3ccc(OC4CCOC4)cc3)c2)OC(CO)C(O)C1O (centres unmarked) | CD-1 mouse | plasma | intravenous | 5 mg/kg |  | 2.47 |
| CCC(=O)NC1CC=C(c2cc3c(Nc4cc5ncsc5cc4F)ncnc3s2)CC1 (racemic) | mouse | plasma | intravenous | 10 mg/kg |  | 4.57 |
| O=S(=O)(N[C@H]1CCO[C@@H](C2c3ccccc3CCc3ccccc32)C1)c1ccc(OC(F)(F)F)cc1 | mouse | plasma | oral | 30 mg/kg |  | 4.3 |
| FC(F)(F)Oc1ccc2[nH]c(-c3ccc(OCCN4CCOCC4)cn3)nc2c1 | mouse | plasma | intraperitoneal | 100 mg/kg |  | 2.98 |
| CCC1C(COc2nccc3cc(C(N)=O)c(OC)cc23)NC(=O)C1F (centres unmarked) | CD-1 mouse | plasma | oral | 10 mg/kg |  | 6.65 |
| Cc1cc(NCC(=O)C(C)(C)C)c2nc(N3CCOC[C@H]3C)cc(=O)n2c1 | C57BL/6 mouse | plasma | intraperitoneal | 10 mg/kg | single dose | 0.63 |
| COc1ccccc1/C=C/CNCC(O)COc1ccc(Nc2ccccc2)cc1 (racemic) | mouse | plasma | oral | 10 mg/kg |  | 0.57 |
| Fc1cncc(-c2ccc3[nH]c4ncnc(N[C@H]5CC[C@H](N6CCOCC6)CC5)c4c3c2)c1 | CD-1 mouse | plasma | intravenous | 1 mg/kg |  | 1.21 |
| CCC(=O)N1CCC=C(c2cc3c(Nc4cc5ncsc5cc4F)ncnc3s2)C1 | mouse | plasma | oral | 10 mg/kg |  | 1.79 |
| C/C(N)=N/C(=N\S(=O)(=O)c1ccc(C(F)(F)F)cc1)N1C[C@H](c2ccccc2)C(c2ccc(Cl)cc2)=N1 | male C57BL/6 mouse | liver | intravenous | 5 mg/kg |  | 2.9 |

| Structure (SMILES) | host | medium | route | dose | setting | half-life [h] |
| --- | --- | --- | --- | --- | --- | --- |
| COC(=O)C1=CNC=C(C(=O)OC)C1c1ccc(F)c(C(F)(F)F)c1 | male C57BL/6 mouse | plasma | intravenous | 2 mg/kg |  | 5.15 |
| O=C(Nc1ccc(C(F)F)cc1)[C@H](CC1CCCCC1)Nc1nn2c(=O)ccnc2s1 | female nude mouse | plasma | intravenous | 1 mg/kg |  | 0.57 |
| COc1cccc2c(N3CCC(CCP(=O)(O)O)CC3)ncnc12 | female C57BL/6 mouse | brain | subcutaneous | 100 mg/kg |  | 3.5 |
| OCCn1nc(-c2ccccc2)c2c(Cl)c(-c3ccccc3)nnc21 | mouse | plasma | intraperitoneal | 10 mg/kg |  | 0.267 |
| CC(=O)N1CCC=C(c2cc3c(Nc4cc5ncsc5cc4F)ncnc3s2)C1 | mouse | plasma | intravenous | 10 mg/kg |  | 8.26 |
| O=C(O)c1ccc(/C=C2\SC(=S)N(Cc3cccc(C(F)(F)F)c3)C2=O)cc1 | C57BL/6 mouse | blood | oral | 10 mg/kg |  | 5.1 |
| Cc1ncsc1-c1ccc(CNC(=O)[C@@H]2C[C@@H](O)CN2C(=O)[C@@H](NC(=O)COCC(C)(COCCOCCOCCNC(=O)C[C@@H]2N=C(c3ccc(Cl)cc3)c3c(sc(C)c3C)-n3c(C)nnc32)COCCOCCOCCNC(=O)C[C@@H]2N=C(c3ccc(Cl)cc3)c3c(sc(C)c3C)-n3c(C)nnc32)C(C)(C)C)cc1 | male C57BL/6 mouse | plasma | intravenous | 5 mg/kg | single dose | 2.13 |
| O=C(NCCCCc1ccccc1)n1c(=O)oc2cc(-c3ccc(F)cc3)ccc21 | CD-1 mouse | plasma | intravenous | 1 mg/kg |  | 1.2 |
| Cn1ccc(-c2cc(Cl)c(Cl)c3[nH]c4c(c23)CN(C(=O)CO)CC4)n1 | C57BL/6 mouse | blood | oral | 20 mg/kg |  | 2.44 |
| O=C1CCC(N2C(=O)c3ccc(N4CCC(C(=O)N5CCC(CCN6CCC(CNC(=O)c7cccc(-c8noc(C(F)(F)F)n8)c7)(c7nc(-c8ccccc8)cs7)CC6)CC5)CC4)cc3C2=O)C(=O)N1 (centres unmarked) | CD-1 mouse | plasma | intraperitoneal | 30 mg/kg |  | 5.74 |
| Cc1cc(NC(=O)[C@H](O)c2cc(F)cc(F)c2)ccc1-c1cnc(N)c(C(=O)NC(C)C)c1 | female nude mouse | plasma | oral | 50 mg/kg | single dose | 1.9 |
| Fc1cccc(-n2cc(-c3ccccc3)nc2NCc2ccc(C(F)(F)F)c(Br)c2)c1 | male CD-1 mouse | plasma | intraperitoneal | 25 mg/kg | single dose | 7.51 |
| CC(C)(O)Cn1nc(-c2ccccc2)c2c(Cl)c(-c3ccccc3)nnc21 | mouse | plasma | intraperitoneal | 3 mg/kg |  | 1.57 |
| COc1cnc2cccc(N3CCc4c(cc(Cn5ccnc5)cc4-c4cn(C)nc4C(F)(F)F)C3=O)c2c1 | male CD-1 mouse | plasma | oral | 10 mg/kg |  | 1.3 |
| O=S(=O)(N[C@H]1CCO[C@@H](C2c3ccc(F)cc3CCc3cc(F)ccc32)C1)c1ccc(OC(F)(F)F)cc1 | mouse | plasma | oral | 30 mg/kg |  | 5.5 |
| CC(C)[C@@H](C)Nc1nc(-c2cccs2)nc(Cl)c1-c1c(F)cc(F)cc1F | mouse | plasma | intraperitoneal | 2.5 mg/kg |  | 0.48 |
| CC[C@H](C)[C@@H]1NC(=O)[C@@](C)(NC(=O)[C@H](CCCNC(=N)N)NC(=O)[C@H](CC(C)C)NC(=O)[C@]2(C)CCCC=CCCC[C@](C)(NC(C)=O)C(=O)N[C@@H](CC(C)C)C(=O)N[C@@H](CCC(N)=O)C(=O)N2)CCCC=CCCC[C@@](C)(C(=O)N[C@@H](CC(C)C)C(=O)N[C@@H](Cc2ccc3ccccc3c2)C(=O)NCCC(=O)NCCC(N)=O)NC(=O)[C@H](CCCNC(=N)N)NC(=O)[C@H](CCC(N)=O)NC1=O | male BALB/c mouse | plasma | intravenous | 30 mg/kg |  | 7.03 |
| OCC1OC(n2cnc3c(NCc4ccc(Br)s4)ncnc32)C(O)C1O (centres unmarked) | male CD-1 mouse | blood | intravenous | 1 mg/kg |  | 1.8 |
| COc1ccc2nc(NC(c3ccc(O)cc3)P(=O)(OC)OC)sc2c1 (centres unmarked) | mouse | plasma | intravenous | 10 mg/kg |  | 5.5 |

A few entries again:
| Structure (SMILES) | host | medium | route | dose | setting | half-life [h] |
| --- | --- | --- | --- | --- | --- | --- |
| COC1C(c2ccc(Cl)c(Cc3ccc(OC4CCOC4)cc3)c2)OC(CO)C(O)C1O (centres unmarked) | CD-1 mouse | plasma | intravenous | 5 mg/kg |  | 2.47 |
| CCC(=O)NC1CC=C(c2cc3c(Nc4cc5ncsc5cc4F)ncnc3s2)CC1 (racemic) | mouse | plasma | intravenous | 10 mg/kg |  | 4.57 |
| O=S(=O)(N[C@H]1CCO[C@@H](C2c3ccccc3CCc3ccccc32)C1)c1ccc(OC(F)(F)F)cc1 | mouse | plasma | oral | 30 mg/kg |  | 4.3 |
| FC(F)(F)Oc1ccc2[nH]c(-c3ccc(OCCN4CCOCC4)cn3)nc2c1 | mouse | plasma | intraperitoneal | 100 mg/kg |  | 2.98 |
